Assay results gathered from unrelated publications.
Each numbered part is a random draw from the data of one study; scales do not carry over between parts.

Block 1
Target: Sal-like protein 4, full length isoform A (SALL4, Homo sapiens, UniProt Q9UJQ4, residues 1-1053)
Sequence of UniProt Q9UJQ4 (whole entry, looked up): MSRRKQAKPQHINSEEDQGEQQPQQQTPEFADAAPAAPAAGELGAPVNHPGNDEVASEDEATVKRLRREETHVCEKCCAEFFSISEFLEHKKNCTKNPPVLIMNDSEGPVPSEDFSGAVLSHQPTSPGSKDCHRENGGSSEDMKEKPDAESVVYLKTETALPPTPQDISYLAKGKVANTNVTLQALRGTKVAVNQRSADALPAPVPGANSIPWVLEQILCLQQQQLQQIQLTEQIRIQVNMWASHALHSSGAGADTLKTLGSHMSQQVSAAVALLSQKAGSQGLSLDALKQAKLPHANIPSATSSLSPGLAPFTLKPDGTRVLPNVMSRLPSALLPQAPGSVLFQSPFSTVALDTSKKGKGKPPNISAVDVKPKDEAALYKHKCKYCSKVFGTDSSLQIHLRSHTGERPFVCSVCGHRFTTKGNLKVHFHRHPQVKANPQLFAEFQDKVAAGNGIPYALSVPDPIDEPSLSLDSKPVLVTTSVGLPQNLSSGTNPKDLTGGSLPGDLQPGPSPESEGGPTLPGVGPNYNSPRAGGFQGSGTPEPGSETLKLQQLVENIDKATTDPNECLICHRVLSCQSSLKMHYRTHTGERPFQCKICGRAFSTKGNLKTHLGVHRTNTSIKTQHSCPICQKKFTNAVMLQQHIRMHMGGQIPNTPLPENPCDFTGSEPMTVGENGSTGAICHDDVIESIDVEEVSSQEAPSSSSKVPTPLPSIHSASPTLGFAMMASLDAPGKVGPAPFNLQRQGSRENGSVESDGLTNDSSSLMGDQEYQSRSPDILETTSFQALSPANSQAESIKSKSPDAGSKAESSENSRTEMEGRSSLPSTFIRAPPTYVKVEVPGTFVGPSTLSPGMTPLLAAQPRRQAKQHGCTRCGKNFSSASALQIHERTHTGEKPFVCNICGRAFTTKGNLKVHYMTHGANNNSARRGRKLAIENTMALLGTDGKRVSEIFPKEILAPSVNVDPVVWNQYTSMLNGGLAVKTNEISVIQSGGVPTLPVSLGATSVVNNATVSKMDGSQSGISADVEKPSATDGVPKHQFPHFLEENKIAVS
Technique: universal PBM
Molecule type: double-stranded DNA, one strand shown
Matrix: in vitro
Concentration: 600 nM
Notes: 8-mer, flanks averaged, mean of replicates
Direction: higher = stronger binding
Measurement: E-score
Strand = ACCCTTCC; result = -0.0379
Strand = ATGCTTCA; result = 0.143
Strand = GGCTAAAA; result = 0.0698
Strand = GGTCACAC; result = -0.243
Strand = AAAACATC; result = 0.201
Strand = AGGCTAGC; result = -0.0768
Strand = CGGACCGA; result = -0.256
Strand = GGCAAGAC; result = -0.158
Strand = CGAAAAAG; result = 0.00352
Strand = CGTTATAG; result = 0.258
Strand = AGCAGCCT; result = -0.17
Strand = GCTGAGAA; result = -0.185
Strand = GGAAAAGA; result = 0.0911
Strand = CTCTATAA; result = 0.329
Strand = CATAGAAA; result = 0.232
Strand = CTGGACTA; result = -0.124
Strand = GTTAGCCA; result = -0.168
Strand = TCAAATGA; result = 0.157
Strand = TAGGGAAA; result = 0.108
Strand = CACGGGAA; result = -0.254
Strand = CGGGGGGC; result = -0.36
Strand = CATCTGAC; result = -0.0575
Strand = AAACGAAT; result = 0.261
Strand = ACTCTGTG; result = -0.007
Strand = CGAGAGGC; result = -0.291

Block 2
Target: TATA-box-binding protein 1 (TBP1, Arabidopsis thaliana, UniProt P28147, residues 1-200, full length assumed)
Technique: protein-binding microarray
Molecule type: double-stranded DNA, one strand shown
Matrix: in vitro
Concentration: not given
Notes: k-mer, scored over probes, only values ≥0.25
Direction: higher = stronger binding
Measurement: E-score
Construct (chain): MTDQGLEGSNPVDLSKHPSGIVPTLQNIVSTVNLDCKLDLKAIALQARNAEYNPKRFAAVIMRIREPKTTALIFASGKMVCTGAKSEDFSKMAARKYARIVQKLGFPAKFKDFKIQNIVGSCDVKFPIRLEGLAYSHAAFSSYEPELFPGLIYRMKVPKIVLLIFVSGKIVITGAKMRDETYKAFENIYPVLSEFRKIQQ
Strand = TTAAGAA; result = 0.284
Strand = CAGTATA; result = 0.329
Strand = ATACACA; result = 0.263
Strand = AGTATTA; result = 0.335
Strand = GACTTTA; result = 0.343
Strand = TGCTTAA; result = 0.291
Strand = CAATTAA; result = 0.293
Strand = GGTTTAA; result = 0.288
Strand = ATCTTTA; result = 0.284
Strand = ATAACTG; result = 0.264
Strand = ATTTTTA; result = 0.402
Strand = ATTAAAT; result = 0.432
Strand = AACATGT; result = 0.283
Strand = GGGTATA; result = 0.364
Strand = ATTAAAG; result = 0.379
Strand = CAAATAA; result = 0.26
Strand = GGAAATA; result = 0.27

Block 3
Target: Interferon regulatory factor 7, full length, phosphomimetic (IRF7, Homo sapiens, UniProt Q92985, residues 1-503, S471D/S472D/S475D/S476D/S477D/S483D/S484D/S487D)
Technique: protein-binding microarray
Molecule type: double-stranded DNA, one strand shown
Matrix: in vitro
Concentration: 2200 nM top
Notes: 60-bp whole probe
Added: salmon DNA 0.4 mg/ml
Baseline: random background probes
Direction: higher = stronger binding
Measurement: fitted relative affinity
Constant ends, left off below: GCCTAGCAC … GTCTTGATTCGCTTGACGCTGCTG
Target sequence (chain): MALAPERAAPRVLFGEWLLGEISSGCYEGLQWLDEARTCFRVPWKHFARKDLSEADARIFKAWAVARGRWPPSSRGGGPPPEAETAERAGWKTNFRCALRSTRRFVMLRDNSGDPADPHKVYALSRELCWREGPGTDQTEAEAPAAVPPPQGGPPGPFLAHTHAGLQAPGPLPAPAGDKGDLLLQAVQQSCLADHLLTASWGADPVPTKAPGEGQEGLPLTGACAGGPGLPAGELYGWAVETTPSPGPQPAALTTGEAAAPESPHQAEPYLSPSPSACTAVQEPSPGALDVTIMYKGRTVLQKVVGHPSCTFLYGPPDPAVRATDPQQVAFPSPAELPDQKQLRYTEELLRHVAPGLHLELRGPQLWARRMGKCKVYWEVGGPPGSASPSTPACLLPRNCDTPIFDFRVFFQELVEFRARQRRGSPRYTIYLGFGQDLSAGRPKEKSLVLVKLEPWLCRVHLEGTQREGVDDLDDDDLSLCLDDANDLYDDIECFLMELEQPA
Strand = GACGAACTGAGTTGCGAGACGTGCTAG; result = -0.0654 z-score
Strand = TCATATTTGTCCCTATTACTGTGCTAG; result = 2.4 z-score
Strand = TTAGGTATCGACTACCGGTTAGTGCTA; result = 0.415 z-score
Strand = TTAGGTTTCCTTTTCATTTAGTGCTAG; result = 4.07 z-score
Strand = GACGGTTTCGACTATCGGCACGTGCTA; result = 3.33 z-score
Strand = TCATTTTTTTTTTTTGGACTGTGCTAG; result = 1.91 z-score
Strand = TTAGGACTGCATCTCCTTTAGTGCTAG; result = 0.454 z-score
Strand = GTAGGTTTCCTACTGCTTTAGTGCTAG; result = 1.08 z-score
Strand = TTAGCTTTCAGACTGGATTAGTGCTAG; result = 0.489 z-score
Strand = GTTGCTCTCCGGGGTCTGTGAGTGCTA; result = 0.272 z-score
Strand = AACGAACTGGGGACTGGAGACGTGCTA; result = -0.331 z-score
Strand = CCAGGGCTCTAGAGAAATAGGTGCTAG; result = -1.32 z-score
Strand = TTAGGACTGGGTTTCGGTTAGTGCTAG; result = 3.9 z-score
Strand = GACGATCTCAGTTTCGACACGTGCTAG; result = 3 z-score
Strand = TAAGGTTTCGGTTTCGGTTAGTGCTAG; result = 17 z-score
Strand = TCATATACCTGTATATCACTGTGCTAG; result = 1.32 z-score
Strand = TATTGTTTCCTTCCTCTTTTGTGCTAG; result = 3.85 z-score
Strand = TCATCTTTCCCTGCCCCACTGTGCTAG; result = 1.94 z-score
Strand = GACGAACTGAGGTATCGAGACGTGCTA; result = -0.422 z-score
Strand = TTAGGTTTCGGACTGGATTAGTGCTAG; result = 2.81 z-score
Strand = TCACATTTCAATTAGAAACTGTGCTAG; result = 1.11 z-score
Strand = TTAGCTCTCCTACTGCTTTAGTGCTAG; result = 1.12 z-score
Strand = TTAGGACTGGACTTTCGGTGAGTGCTA; result = 0.774 z-score
Strand = GACGATTTCAGTTTCGAGTCGTGCTAG; result = 8.27 z-score
Strand = TCTCTTTTTGCTTTCTTTATGTGCTAG; result = 4.06 z-score

Block 4
Target: Histone acetyltransferase KAT6A, winged helix 1, GST fusion (KAT6A, Homo sapiens, UniProt Q92794, residues 1-85)
Technique: protein binding microarray
Molecule type: double-stranded DNA, one strand shown
Matrix: in vitro
Concentration: not given
Notes: 8-mer, flanks averaged, mean of 2 arrays, mostly near background
Baseline: not given
Direction: higher = stronger binding
Measurement: E-score
Target sequence (chain): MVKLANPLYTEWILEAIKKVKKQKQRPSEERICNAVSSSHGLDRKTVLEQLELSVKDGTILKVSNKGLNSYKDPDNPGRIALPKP
Strand = CACGTTGC; result = -0.102
Strand = ACAGACCA; result = -0.301
Strand = AGCAAAAA; result = -0.208
Strand = CCTTGTTC; result = -0.134
Strand = ACCGTGTC; result = 0.202
Strand = AACGTGTC; result = 0.0196
Strand = CGTGCAAA; result = -0.0711
Strand = AGGGACAC; result = -0.111
Strand = CTCGGCAG; result = 0.098
Strand = GAGTTAAC; result = -0.14
Strand = CGACCTCC; result = -0.000435
Strand = AGGGAATC; result = -0.0957
Strand = CTTAAACA; result = -0.0342
Strand = ATAGATTC; result = -0.194
Strand = CGCAGCAC; result = 0.163
Strand = TATCAGAA; result = -0.077
Strand = CGATGACC; result = 0.159
Strand = ATTATCGC; result = 0.0222
Strand = CACTTGCA; result = -0.21
Strand = ACGTTTTC; result = 0.0392
Strand = AAAACAGC; result = -0.0287
Strand = AACGGTGC; result = 0.087

Block 5
Target: RNA binding protein fox-1 homolog 2, RRM domain, GST-SBP tag (RBFOX2, Homo sapiens, UniProt O43251-10, residues 100-194)
Technique: RNA Bind-n-Seq
Molecule type: RNA
Matrix: in vitro
Concentration: 365 nM
Notes: natural RNA segment, single round, ends assumed
Baseline: no-protein control
Direction: higher = stronger binding
Measurement: RBNS enrichment (R)
Target sequence (chain): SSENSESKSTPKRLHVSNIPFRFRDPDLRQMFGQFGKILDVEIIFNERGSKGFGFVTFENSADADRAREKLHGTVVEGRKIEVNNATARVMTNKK
Strand = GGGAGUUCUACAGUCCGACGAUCUAAAGCUUUUGUUAUAUAUUAAAUGUAAACUGAAAGGAAUGUAAACAUAUGUAUUGUUAAUUAUAAAUAUAGAUAAGUAAUGACAUAAUAGAUGAAAAAGUCUUAUUCAGUGGAAUUCUCGGGUGCCAA; result = 1.02
Strand = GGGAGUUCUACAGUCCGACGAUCUCCUCCUCUGAGAGCAGUGAUGCAGGCCAGGAGACAUCAUUUGAGAAUGCUGAUGCUUUUGUAAGGCUUUGACCUGGUUAGGUCAUUGGGGGAAAUUUUCUAUAAAAGAGUGGAAUUCUCGGGUGCCAA; result = 2.32
Strand = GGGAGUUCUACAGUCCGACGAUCGGACUUUUCCUGUCACUGUGAACUUUGCUGGUUAUCUGCCUUCAAUUUUUGGACCACAAACCACCCUGCAGCUUCUUAAACCUUUCCCCAACCUACCACCCAAAAGAACCUGGAAUUCUCGGGUGCCAA; result = 0.822
Strand = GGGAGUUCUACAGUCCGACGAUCACAGUAAAUUUGGGAUGUAUGUAAGGAGAGAGAGAAAUACCCUGUUAGUACCUCUAGAAAUCAUGUGUCCUAGGAAUGGCAAGGAUGGAAAGAAAGUUGAAGACUGUUCUUGGAAUUCUCGGGUGCCAA; result = 1.12
Strand = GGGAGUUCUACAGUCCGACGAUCUUCUAGUUCUUUAAAUGAGACAAUCACUUUGUUUUCUAAUAGAUGUGACCUGUGUAACUUAAAAAAUCUGAGGGUUUGAGAGAGGUUGCUCUAGAUUUCCAAUGACGAUAUGGAAUUCUCGGGUGCCAA; result = 0.35
Strand = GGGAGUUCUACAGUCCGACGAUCGGAAUAGCCACCUCUUGACCAGUCAUGCCUGUGUGCAUGGACUCAGGGCCACGGCCUUGGCCUGGGCCACCGUGACAUUGGAAGAGCCUGUGUGAGAACUUACUCGAAGUUGGAAUUCUCGGGUGCCAA; result = 0.819
Strand = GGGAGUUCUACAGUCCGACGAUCCUCUGGGCUUGACCAGUUCCCAAUCUCGUCCUCUGUCCCCAACUUCUUAAGCACAAUUGGGCUUCUUCCAUCUCCAGGUUUUCUGCCAUUCUUAACCAAGGCUGCCUCUUUGGAAUUCUCGGGUGCCAA; result = 0.401
Strand = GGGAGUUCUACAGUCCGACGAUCUCCUCACUCUUUGUGGAAGGGAAAGCUCAAAGGGACUCUCUCUCUCUCUCUCUUUUUUUUUUUUUUUGAGUAGUACCCUUGCCCUCUUCAUGGCCACUUCAAAGUGAAGCUGGAAUUCUCGGGUGCCAA; result = 1.16
Strand = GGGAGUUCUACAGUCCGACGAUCGGGUUCGAUUCCUUUGUGUUUAGAGAGACCAGGUUCAGACAAUGGUAUAUAUUUUUGUUAUCAGGUGCAUGUCUGUCUGAUUUCCUUUUCUUCUCGUUGGGACUAUGUUUUGGAAUUCUCGGGUGCCAA; result = 19.8
Strand = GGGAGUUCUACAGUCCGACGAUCAAGCCAUUUUGGUUUUCCUUAACUAAAUGAUAAAUGUACCCCUCUCAGUCUGCAGUAUUGAGUUGUUUAAAGUAUAUGUGCAGUCUUGCUUACAAGGAGGGGUUACCAUGUGGAAUUCUCGGGUGCCAA; result = 0.468
Strand = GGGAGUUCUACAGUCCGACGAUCCUGGGCACCUGCUGCUGUUAGGGCCAAUGCAUAGUCUCAGCACCGGUGUCCUAAGGUUAAGGCGGUGCGCCUUGUCAUGUGCUCCUUGUACCAUGCCAUCUGUGCCAGUGUGGAAUUCUCGGGUGCCAA; result = 0.647
Strand = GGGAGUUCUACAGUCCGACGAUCAAGGCCAGAAGGGGCUUAUAAUGACUUCUCUUCUAGAAUUGUAAUACUAAAAAACUACUCGAGUAAAUAUCCUAACAAGUAUGAUUUUUCUUGGGAAAACUAAAAAUUGUUGGAAUUCUCGGGUGCCAA; result = 0.566

Some of these lines once more (block 1):
Strand = GCTGAGAA; result = -0.185
Strand = GGAAAAGA; result = 0.0911
Strand = CTCTATAA; result = 0.329
Strand = CATAGAAA; result = 0.232
Strand = CTGGACTA; result = -0.124
Strand = GTTAGCCA; result = -0.168
Strand = TCAAATGA; result = 0.157
Strand = TAGGGAAA; result = 0.108
Strand = CACGGGAA; result = -0.254
Strand = CGGGGGGC; result = -0.36
Strand = CATCTGAC; result = -0.0575
Strand = AAACGAAT; result = 0.261
Strand = ACTCTGTG; result = -0.007
